Published values pooled from the literature.
Lines come from different studies, so protocols differ. Values joined by “and” are separate records of one study, mostly repeats; a detail may differ.

CC(NCCc1ccc(O)cc1)C(O)c1ccc(O)cc1 (centres unmarked) gave a viability of 108% (MCF-10A; CellTiter-Glo; concentration not given; relative to: normalised, mean of replicates).
With CCCCCCNc1nc(NC2CCN(C)CC2)c2cc(OC)c(OC)cc2n1 the EC50 was 850 nM (Toxoplasma gondii; bradyzoite growth; pH 8.2, alkaline-induced bradyzoites).
CN1C(=O)C2(NN=C(c3ccccc3)S2)c2cc(Br)ccc21 (centres unmarked): viability “active” (SK-N-BE(2) and SK-N-SH; MTT; 10 µM, 24 h).
Nc1cccc2c1C(=O)N(C1CCC(=O)NC1=O)C2=O (centres unmarked) gave a viability of 12% (MM1.S; XTT; 3 µM; relative to: untreated).
For CC(=O)O[C@H]1C(=O)[C@@]2(C)[C@H]([C@H](OC(=O)c3ccccc3)[C@]3(O)C[C@H](OC(=O)[C@H](O)[C@@H](NC(=O)c4ccccc4)c4ccccc4)C(C)=C1C3(C)C)[C@]1(OC(C)=O)CO[C@@H]1C[C@@H]2O, the viability was 95.2% (CHP-212 parental; SRB; 1.524 nM).
Cc1cccc(-c2[nH]c(CNc3ccccc3F)nc2-c2ccc3ncnn3c2)n1 has a viability of 100% and 91% and 82% (MM1.S pomalidomide-resistant; XTT; 0.75 µM).
For Cc1ccc(CNC(=O)Cn2cc(CSc3nc4ccccc4[nH]3)nn2)cc1, the viability was 6.48% (MDA-MB-231; MTT; 250 ppm).
With CC[C@H]1CN2CCc3cc(OC)c(OC)cc3[C@@H]2C[C@@H]1C[C@H]1NCCc2cc(OC)c(OC)cc21 the EC50 was 1080 nM (Toxoplasma gondii; parasite growth; HFF, bradyzoite, glutamine-induced).
The viability of CCN(CC)C(=O)N1CCN(C)CC1 is reported as 105% (MCF-10A; CellTiter-Glo; concentration not given; relative to: normalised, mean of replicates).
CC(=O)Nc1cccc(-n2c(=O)n(C3CC3)c(=O)c3c(Nc4ccc(I)cc4F)n(C)c(=O)c(C)c32)c1 gave a viability of 50.3% (LoVo (KRAS G13D); resazurin; 100.00 nM, 72 h; relative to: DMSO).
With CC(=O)c1nn(-c2ccc(Cl)cc2)/c(=N/N=C(\C)c2ccc(NC(=O)c3ccc(Cl)cc3)cc2)s1 the viability was 99.9% (MCF7; 0.625 µM).
O=C1NCN(c2ccccc2)C12CCN(CCCC(c1ccc(F)cc1)c1ccc(F)cc1)CC2 has a viability of 52.7% (MCF-10A; CellTiter-Glo; concentration not given; relative to: normalised, mean of replicates).
COc1ccc(-n2nc(C(C)=O)s/c2=N\N=C(/C)c2ccc(NC(=O)c3ccccc3)cc2)cc1 gave a viability of 2.77% (HepG2; 2.5 µM).
The viability of Nc1ncnc2c1ncn2[C@@H]1O[C@H](COP(=O)(O)O)[C@@H](O)[C@H]1O is reported as 128% (MCF-10A; CellTiter-Glo; concentration not given; relative to: normalised, mean of replicates).

Some of these lines once more:
The viability of Nc1ncnc2c1ncn2[C@@H]1O[C@H](COP(=O)(O)O)[C@@H](O)[C@H]1O is reported as 128% (MCF-10A; CellTiter-Glo; concentration not given; relative to: normalised, mean of replicates).
For Cc1ccc(CNC(=O)Cn2cc(CSc3nc4ccccc4[nH]3)nn2)cc1, the viability was 6.48% (MDA-MB-231; MTT; 250 ppm).
